Assay results collected from several papers.
± marks the error that the study gave. Bridges are numbered along the chain shown (N, C = ends). Where no end group is shown, it is not given here. Ends that are not written are not given here.
B1: UGT1A9 (Homo sapiens, UniProt O60656); chain GKLLVVPMDGSHWFTMRSVVEKLILRGHEVVVVMPEVSWQLGRSLNCTVKTYSTSYTLEDLDREFKAFAHAQWKAQVRSIYSLLMGSYNDIFDLFFSNCRSLFKDKKLVEYLKESSFDAVFLDPFDNCGLIVAKYFSLPSVVFARGILCHYLEEGAQCPAPLSYVPRILLGFSDAMTFKERVRNHIMHLEEHLLCHRFFKNALEIASEILQTPVTEYDLYSHTSIWLLRTDFVLDYPKPVMPNMIFIGGINCHQGKPLPMEFEAYINASGEHGIVVFSLGSMVSEIPEKKAMAIADALGKIPQTVLWRYTGTRPSNLANNTILVKWLPQNDLLGHPMTRAFITHAGSHGVYESICNGVPMVMMPLFGDQMDNAKRMETKGAGVTLNVLEMTSEDLENALKAVINDKSYKENIMRLSSLHKDRPVEPLDLAVFWVEFVMRHKGAPHLRPAAHDLTWYQYHSLDVIGFLLAVVLTVAFITFKCCAYGYRKCLGKKGRVKKAHKSKTH

rnpA F107W (Bacillus subtilis)
pKa (NMR, measured: His105; 25 °C, Na2SO4 20 mM, numbering of the source): 5.52

insulin lispro
tmax (human, type 1 diabetes; subcutaneous, FAST PK setting, no carbohydrate interventions): 1.07 h

Insulin human
concentration (ELISA; rat, hippocampus; intranasal, 20 µg per nostril, 60 min): 47.2 ± 5.9 pg/mg tissue

B1 (UGT1A9)
Vmax/Km (O=c1cc(-c2ccccc2)oc2cccc(O)c12; steady-state kinetics; pH 7.4, 37 °C): 123 µL/min/mg

TMPFLFCNVNDVCNFASRNDYSKKK (99mTc-labelled)
radiochemical purity (TLC; peptide, saline; 8 h, 37 °C): > 90%

insulin aspart
AUC(0-t) (healthy subjects, plasma; subcutaneous, 0.2 U/kg, 12 h): 8.02 ng·h/mL

pegcetacoplan
apparent central volume (population PK model; human, GA or nAMD, serum; intravitreal, dose not given): 0.603 log(L)

CARLSLSWRGLTLCPSK (68Ga-DOTA-labelled)
uptake (mouse VAP-1; ex vivo biodistribution; peptide, wild-type mouse, B16 melanoma xenograft, muscle; 60 min, with: 500-fold excess unlabelled DOTA-peptide): 0.03 SUV

TMPFLFCNVNDVCNFASRNDYSYWLHHHHHH (99mTc-labelled)
radiochemical purity (TLC; peptide, rat serum; 8 h, 37 °C): > 90%

insulin icodec
half-life (human, type 2 diabetes, serum; subcutaneous, 12, 20, 24 nmol/kg once weekly, 5 weeks, geometric mean): 196 h

insulin
concentration in 1-octanol (shake-flask; 1-octanol/acidified water; 3 h): 3600 ng/mL

CC(C)[C@H](NC(=O)[C@@H]1CCCN1C(=O)[C@H](CCCNC(=N)N)NC(=O)[C@H](CS)NC(=O)[C@H](Cc1c[nH]c2ccccc12)NC(=O)[C@H](CCCNC(=N)N)NC(=O)[C@@H](Cc1ccccc1)NC(=O)[C@H](Cc1c[nH]cn1)NC(=O)[C@H](CCC(=O)O)NC(=O)[C@H](CS)NC(=O)[C@H](CS)NC(=O)[C@H](CCCCN)NC(=O)[C@@H]1CC(=O)N[C@@H](CCCNC(=N)N)C(=O)N[C@@H](C)C(=O)N[C@@H](CC(=O)O)C(=O)N[C@H](Cc2ccc(O)cc2)C(=O)N1)C(N)=O [technetium-99m labelled]
tissue uptake (C57 mice, kidneys; intravenous, 0.037 MBq, 24 h): 33.2 ± 3.39 %ID/g

KCNTATCATQRLANFLVHSSNNFGPILPPTNVGSNTY (Pramlintide; not fully specified (C-terminus, bridges); cysteine pairing not given here; sequence looked up)
streptococcal pharyngitis incidence (peptide, obese or overweight humans; dose not given): 5.4%

SQSVLYS
inhibition (peptide, human polyclonal IgM RF MCC; concentration not given, 5 µg/mL mAb II-481 coated, with: RF at 50% max binding concentration): 0%

N=C(N)NCCC[C@@H]1NC(=O)[C@H](CSC2CC(=O)N(CCNC(=O)CN3CCN(CC(=O)O)CCN(CC(=O)O)CCN(CC(=O)O)CC3)C2=O)NC(=O)[C@H](CCCCN)NC(=O)[C@@H](Cc2ccc(O)cc2)NC(=O)[C@H](CC(=O)O)NC(=O)CNC1=O (some centres unmarked) [gallium-68 labelled]
distribution half-life (female ICR mouse, blood; intravenous, 5 MBq): 1.11 ± 0.22 min

SGVPDRF
inhibition (peptide, human polyclonal IgM RF SOR; concentration not given, 5 µg/mL mAb II-481 coated, with: RF at 50% max binding concentration): 90%

CGGQDLKSC (disulfide 1-9 (inferred)) (disulfide)
retention in airways (fluorescence imaging; Balb/c mice, nanoparticles; intratracheal, 24 h; baseline: initial fluorescence): ~68%

Repeated from above:
SGVPDRF
inhibition (peptide, human polyclonal IgM RF SOR; concentration not given, 5 µg/mL mAb II-481 coated, with: RF at 50% max binding concentration): 90%
